Results from different studies.
Numbers after ± are the reported error.

COC1=C(OC)C(O)C(CC=C(C)CCC=C(C)CCC=C(C)C(=O)O)C(C)C1=O (centres unmarked)  IC50 (NCI-H441; cell growth or viability, MTS; 72 h): > 25 µM
CC(=O)[O][Pt]([Cl])([Cl])[O]C(=O)CCCc1ccccc1.N.N  IC50 (BXPC-3; cell growth or viability): 10.1 µM
Clc1cc2nc(-c3cc4ccccc4nc3Cl)[nH]c2cc1Cl  IC50 (L02; cell growth or viability, MTT; 48 h): > 100 µM
N#Cc1cccc(-c2ccc(=O)n(Cc3cccc(-c4ncc(OCC5CCN(CCCCCC(=O)Nc6cccc7c6C(=O)N(C6CCC(=O)NC6=O)C7=O)CC5)cn4)c3)n2)c1 (centres unmarked)  IC50 (EBC-1; cell growth or viability, CCK-8; 72 h): 0.00805 µM
O=C(COc1ccc(-c2ccccc2)cc1)N[C@@H]1O[C@H](CO)[C@@H](O)[C@H](O)[C@H]1O  IC50 (human T-lymphocyte; cell growth or viability; 72 h): > 250 µM
CC(=O)[O][Pt]([Cl])([Cl])[O]C(C)=O.N.N  IC50 (five cancer cell lines; cytotoxicity; mean over panel): 29.2 µM
Clc1cc2nc(-c3cc4cc5c(cc4nc3Cl)OCO5)[nH]c2cc1Cl  IC50 (BEL-7404; cell growth or viability, MTT; 48 h): > 100 µM
COc1cccc2c1C(=O)c1c(O)c3c(c(O)c1C2=O)C[C@@](O)(C(=O)CO)C[C@@H]3O[C@H]1C[C@H](N)[C@H](O)[C@H](C)O1  IC50 (human dermal fibroblasts; cytotoxicity, MTT; 72 h): ~0.1 µM
CCCCCC(=O)O[C@H]1[C@H](C)O[C@@H](O[C@H]2[C@H](N(C)C)[C@@H](O)[C@H](O[C@H]3[C@@H](CC=O)C[C@@H](C)[C@@H](O[C@H]4CC[C@H](N(C)C)[C@@H](C)O4)/C=C/C=C/C[C@@H](C)OC(=O)C[C@@H](O)[C@@H]3OC)O[C@@H]2C)C[C@@]1(C)O  IC50 (GES1; cell growth or viability, CCK-8; 72 h): 38.8 µM
Cc1ccc(NC(=O)c2c(C)oc3ccc(O)c(CN4CCCCCC4)c23)cc1  IC50 (MOLP-8; cell growth or viability, MTS; 72 h): 8.3 µM
Cc1ccc2nc(Cl)c(-c3nc4ccccc4[nH]3)cc2c1  IC50 (L02; cell growth or viability, MTT; 48 h): > 100 µM
CC(C)N(C[C@H]1O[C@@H](n2cnc3c(N)ncnc32)[C@H](O)[C@@H]1O)C1CC2CN(Cc3ccc(OC(F)(F)F)cc3)CC2C1 (some centres unmarked)  IC50 (H460 wild type; cell growth; 72 h): > 100 µM
COc1ccc(-c2cnc3[nH]c4ccc(/C=C/c5ccccc5)cc4c3c2)cc1  IC50 (Ba/F3 NPM-ALK; cell proliferation, [3H]-thymidine incorporation): 2 µM
CC(=O)NCCCN(C)CCCNc1cccc2c1C(=O)c1cccc(NCCCN(C)CCCNC(C)=O)c1C2=O  IC50 (Ca9-22; cell growth or viability, CCK-8; 48 h): 1.1 µM
O=C(N[C@@H](Cc1coc2ccccc12)B(O)O)[C@@H]1C[C@H]2CC[C@@H]1O2  IC50 (MM1.S; cell growth or viability, resazurin; 96 h): 0.367 µM
CN(C)CCO/N=C1/C=C2CCC3C(CC[C@]4(C)/C(=C/c5ccccn5)CCC34)[C@@]2(C)CC1 (some centres unmarked)  IC50 (human Fibroblast; cell growth or viability, resazurin; 72 h): 34.2 µM
C#CCNC(=O)C(CC)C1CCC(C)C(C(C)C(O)C(C)C(=O)C(CC)C2OC3(C=CC(O)C4(CCC(C)(C5CCC(O)(CC)C(C)O5)O4)O3)C(C)CC2C)O1 (centres unmarked)  IC50 (ALL5; cell growth or viability, MTT; 5 days): 9.4 µM
CC(=O)N[C@H](CCCNC(=N)N)C(=O)N[C@@H](CC(=O)N[C@H](Cc1ccccc1)C(=O)N[C@H](CC(=O)O)C(N)=O)c1ccc2ccccc2c1  IC50 (BT-474; cell growth or viability, ATP luminescence; 72 h): > 50 µM
CC1=C2[O][Ru-]([Cl])[O+]=C2C=CN1CCCN1C=CC2=[O+][Ru-]([Cl])[O]C2=C1C.Cc1ccc(C(C)C)cc1.Cc1ccc(C(C)C)cc1  IC50 (5637-oxo oxoplatin-resistant; crystal violet; 96 h): > 20 µM
COc1c(O)cc2oc3cc4c(c(O)c3c(=O)c2c1CCC(C)(C)O)CCC(C)(C)O4  IC50 (SMMC-7721; cell growth or viability; 48 h): > 40 µM
COc1ccc2nc(Cl)c(-c3nc4cc(Br)ccc4[nH]3)cc2c1  IC50 (L02; cell growth or viability, MTT; 48 h): > 100 µM
CC(C)C[C@H](NC(=O)[C@@H](Cc1c[nH]c2ccccc12)NC(=O)[C@H](Cc1c[nH]cn1)NC(=O)[C@H](CO)NC(=O)[C@H](Cc1c[nH]c2ccccc12)NC(=O)[C@H](Cc1c[nH]cn1)NC(=O)[C@@H]1CCC(=O)N1)C(=O)N[C@@H](CCCNC(=N)N)C(=O)N1CCC[C@H]1C(=O)NCC(N)=O  IC50 (WPE-1-NB26-3; cell growth, inhibitor, sulforhodamine B staining; four days): 0.0004 ± 0.0001 µM
CN(C)c1ccc(/C=C2\Oc3cc(O)ccc3C2=O)cc1  IC50 (PC-9 scrambled control; viability, MTT; 72 h): 14.1 µM
COc1ccc2cc3[n+](cc2c1OCc1cn(Cc2c(F)cccc2F)nn1)CCc1cc2c(cc1-3)OCO2  IC50 (SMMC-7721; cell growth or viability, MTT): 25.3 µM
OC[C@H]1[C@@H](O)[C@@H](O)CN1CCc1ccccc1  IC50 (CEM-DNR daunorubicin resistant; MTS; 72 h): 99 ± 11 µM
COc1ccc(-c2c(C#N)c(N)n(-c3nnc(NC(=O)c4ccccc4)s3)c(=O)c2C#N)cc1  IC50 (WI-38 fibroblasts; 48 h): 18.6 ± 1.4 µM
CCc1ccc([C@H](C)CC(=O)N[C@@H]2O[C@H](COC(C)=O)[C@@H](OC(C)=O)[C@H](OC(C)=O)[C@H]2OC(C)=O)cc1  IC50 (human T-lymphocyte; cell growth or viability; 72 h): 118 µM
C=C1C(=O)O[C@H]2CC3=C[C@@H](C/C(C)=C/[C@@H](OC(=O)/C=C/c4ccccc4)[C@H]12)OC3=O  IC50 (MeWo; cell growth or viability, MTT; 24 h): 9.9 µM
N#Cc1cccc(-c2ccc(=O)n(Cc3cccc(-c4ncc(OCC5CCN(CC(=O)N6CCN(c7ccc8c(c7)C(=O)N(C7CCC(=O)NC7=O)C8=O)CC6)CC5)cn4)c3)n2)c1 (centres unmarked)  IC50 (EBC-1; cell growth or viability, CCK-8; 72 h): 0.00211 µM
CC(C)c1cccc(C(C)C)c1-n1c2c([n+](-c3c(C(C)C)cccc3C(C)C)[c]1[Au-][Cl])-c1cccc3cccc-2c13  IC50 (NTERA2; cell growth or viability, MTT; 72 h): 40 µM
CCCCCCCCCCCCCCCCn1c(-c2cccnc2)nc(-c2ccc(C)cc2)c1-c1ccc(C)cc1  IC50 (BT-474; cell growth or viability, SRB; 48 h): > 100 µM
Cn1cnc(Cn2ccc3ccc(CNCc4[nH]c5ccccc5c4C4NC(=O)c5ccc(O)cc54)cc32)c1 (centres unmarked)  IC50 (NCI-H441; cell growth or viability, ATP luminescence; 72 h): > 30 µM
COc1cccc(Cn2cc(COc3c(OC)ccc4cc5[n+](cc34)CCc3cc4c(cc3-5)OCO4)nn2)c1  IC50 (SMMC-7721; cell growth or viability, MTT): 21.7 µM
COc1c(O)cc2oc3cc4c(c(O)c3c(=O)c2c1CC=C(C)C)CC(O)O4 (centres unmarked)  IC50 (SMMC-7721; cell growth or viability; 48 h): 11.9 µM
CO[C@@H]1[C@@H](O[C@@H]2O[C@H](C)[C@@H](O[C@H]3C[C@@](C)(O)[C@@H](OC(=O)Nc4ccc(C(F)(F)F)cc4)[C@H](C)O3)[C@H](N(C)C)[C@H]2O)[C@@H](CC=O)C[C@@H](C)[C@@H](O[C@H]2CC[C@H](N(C)C)[C@@H](C)O2)/C=C/C=C/C[C@@H](C)OC(=O)C[C@H]1O  IC50 (GES1; cell growth or viability, CCK-8; 72 h): 6.64 µM
CC(=O)OC[C@H]1O[C@@H](NC(=O)[C@@H](C)Cc2ccc(C(C)C)cc2)[C@H](OC(C)=O)[C@@H](OC(C)=O)[C@@H]1OC(C)=O  IC50 (human T-lymphocyte; cell growth or viability; 72 h): 110 µM
CC/C(=C(\c1ccc(O)cc1)c1ccc(OCCN(C)CCOCCOCCOCCOCCOCCOCCOCCOCCOCCOCCOCCN(C)CCOc2ccc(/C(=C(/CC)c3ccccc3)c3ccc(O)cc3)cc2)cc1)c1ccccc1  IC50 (MCF7 (ER-positive); cell growth; 96 h): 0.01 µM
CC1CCN(Cc2cc(/C=C/C(=O)c3ccc(F)cc3)ccc2O)CC1  IC50 (WRL68; cell growth or viability, MTT; 72 h): 10.4 µM
CCCn1c(-c2cccnc2)nc(-c2ccc(C)cc2)c1-c1ccc(C)cc1  IC50 (BT-474; cell growth or viability, SRB; 24 h): 97.1 µM
C=C[CH2][Pd-]([Cl])[Cl].Cc1cc(C)c(-n2c[n+](-c3c(C)cc(C)cc3C)c3c2-c2cccc4cccc-3c24)c(C)c1  IC50 (NTERA2; cell growth or viability, MTT; 72 h): 5 µM
Cn1ccc(-c2cc(Cl)c(Cl)c3[nH]c4c(c23)CN(C(=O)CO)CC4)n1  IC50 (wild-type mouse BMDM; CXCL10 secretion, inhibitor; added: 100 bp dsDNA): > 30 µM
Clc1nc2cc3c(cc2cc1-c1nc2ccccc2[nH]1)OCO3  IC50 (BEL-7404; cell growth or viability, MTT; 48 h): > 100 µM
CCCCCCCCC=CCCCCCCCCn1c(-c2cccnc2)nc(-c2ccc(C)cc2)c1-c1ccc(C)cc1  IC50 (BT-474; cell growth or viability, SRB; 24 h): > 100 µM
Fc1ccc2[nH]c(-c3cc4ccccc4nc3Cl)nc2c1  IC50 (L02; cell growth or viability, MTT; 48 h): > 100 µM
C=C(F)C(=O)Nc1cnn2ccc(-c3ccc(C4CCCCC4)cc3)nc12  IC50 (NCI-H2052 (NF2 mutant); cell growth, inhibitor; 120 h): 0.229 µM
CCCCc1ccc(C(=O)O[C@@H]2CC(=O)O[C@H](C)C/C=C/C=C/[C@H](O[C@H]3CC[C@H](N(C)C)[C@@H](C)O3)[C@H](C)C[C@H](CC=O)[C@H](O[C@@H]3O[C@H](C)[C@@H](O[C@H]4C[C@@](C)(O)[C@@H](O)[C@H](C)O4)[C@H](N(C)C)[C@H]3O)[C@H]2OC)cc1  IC50 (GES1; cell growth or viability, CCK-8; 72 h): 4.68 µM
Cc1cc(C)c([N+]#[C][Pt-]([Cl])([Cl])=[C](Nc2ccc(CN[C](Nc3c(C(C)C)cccc3C(C)C)=[Au][Cl])cc2)Nc2c(C)cc(C)cc2C)c(C)c1  IC50 (MRC5; cell growth or viability): > 100 µM
COC(=O)[C@H]1CC[C@H](NC(=O)C[C@H]2Oc3ccccc3C(=O)[C@]2(C)[N+](=O)[O-])CC1  IC50 (human Fibroblast; cell growth or viability, SRB; 96 h): > 100 µM
CC(C)c1cccc(C(C)C)c1[N+]#[C][Pd-]([Cl])([Cl])=[C](Nc1cccc(CN[C](NC(C)(C)C)=[Au][Cl])c1)Nc1c(C(C)C)cccc1C(C)C  IC50 (MRC5; cell growth or viability): > 100 µM
COc1ccc(/N=N/C(=S)N2CCCCC2)cc1  IC50 (human Fibroblast; cell growth or viability, resazurin; 48 h): > 50 µM

For quick reference, copied from above:
CC1=C2[O][Ru-]([Cl])[O+]=C2C=CN1CCCN1C=CC2=[O+][Ru-]([Cl])[O]C2=C1C.Cc1ccc(C(C)C)cc1.Cc1ccc(C(C)C)cc1  IC50 (5637-oxo oxoplatin-resistant; crystal violet; 96 h): > 20 µM
COc1c(O)cc2oc3cc4c(c(O)c3c(=O)c2c1CCC(C)(C)O)CCC(C)(C)O4  IC50 (SMMC-7721; cell growth or viability; 48 h): > 40 µM
COc1ccc2nc(Cl)c(-c3nc4cc(Br)ccc4[nH]3)cc2c1  IC50 (L02; cell growth or viability, MTT; 48 h): > 100 µM
CC(C)C[C@H](NC(=O)[C@@H](Cc1c[nH]c2ccccc12)NC(=O)[C@H](Cc1c[nH]cn1)NC(=O)[C@H](CO)NC(=O)[C@H](Cc1c[nH]c2ccccc12)NC(=O)[C@H](Cc1c[nH]cn1)NC(=O)[C@@H]1CCC(=O)N1)C(=O)N[C@@H](CCCNC(=N)N)C(=O)N1CCC[C@H]1C(=O)NCC(N)=O  IC50 (WPE-1-NB26-3; cell growth, inhibitor, sulforhodamine B staining; four days): 0.0004 ± 0.0001 µM
CN(C)c1ccc(/C=C2\Oc3cc(O)ccc3C2=O)cc1  IC50 (PC-9 scrambled control; viability, MTT; 72 h): 14.1 µM
COc1ccc2cc3[n+](cc2c1OCc1cn(Cc2c(F)cccc2F)nn1)CCc1cc2c(cc1-3)OCO2  IC50 (SMMC-7721; cell growth or viability, MTT): 25.3 µM
